Results pooled from the literature.
Each numbered part is a random draw from the data of one study; scales do not carry over between parts.

Study 1 — technique: protein binding microarray; form: double-stranded DNA, one strand shown; sample: in vitro; concentration: not given; relative to: not given; direction: higher = stronger binding; quantity: E-score
Target: Histone acetyltransferase KAT6A, winged helix 2, GST fusion (KAT6A, Homo sapiens, UniProt Q92794, residues 85-181)
Notes: 8-mer, flanks averaged, mean of 2 arrays, mostly near background
Target sequence (chain): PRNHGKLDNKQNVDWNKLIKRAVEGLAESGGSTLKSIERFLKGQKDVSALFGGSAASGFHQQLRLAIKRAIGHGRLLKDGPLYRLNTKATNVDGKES
ACACTGCG: 0.0836
CGTAAATC: -0.00793
ACCTCAGA: -0.0618
ACCATGTA: -0.15
GTAGTCAC: -0.0918
CATCGAGG: 0.0803
CACATTCG: -0.00053
TAGTCGAA: 0.11
CATAAGAA: 0.111
CCACGGTA: -0.0125
GACTCCTC: -0.0528
CTGTATTC: -0.0417
ATCCGAAC: -0.0043
GAAGGACC: 0.0563
GAAACTTA: -0.0465
GAATTACA: 0.0585
CTATTGAG: -0.0742
GACTTGAC: -0.163
ACTGCTCT: 0.0906
TCCAAGCA: -0.0547

Study 2 — technique: RNA Bind-n-Seq; form: RNA; sample: in vitro; concentration: 1 µM; notes: whole 134-nt RNA, ends assumed; with: 150 mM KCl; relative to: input library; direction: higher = stronger binding; quantity: log2 enrichment
Target: Ras GTPase-activating protein-binding protein 1, C-terminal RGG region (G3BP1, Homo sapiens, UniProt Q13283)
Chain of UniProt Q13283 (whole entry, looked up): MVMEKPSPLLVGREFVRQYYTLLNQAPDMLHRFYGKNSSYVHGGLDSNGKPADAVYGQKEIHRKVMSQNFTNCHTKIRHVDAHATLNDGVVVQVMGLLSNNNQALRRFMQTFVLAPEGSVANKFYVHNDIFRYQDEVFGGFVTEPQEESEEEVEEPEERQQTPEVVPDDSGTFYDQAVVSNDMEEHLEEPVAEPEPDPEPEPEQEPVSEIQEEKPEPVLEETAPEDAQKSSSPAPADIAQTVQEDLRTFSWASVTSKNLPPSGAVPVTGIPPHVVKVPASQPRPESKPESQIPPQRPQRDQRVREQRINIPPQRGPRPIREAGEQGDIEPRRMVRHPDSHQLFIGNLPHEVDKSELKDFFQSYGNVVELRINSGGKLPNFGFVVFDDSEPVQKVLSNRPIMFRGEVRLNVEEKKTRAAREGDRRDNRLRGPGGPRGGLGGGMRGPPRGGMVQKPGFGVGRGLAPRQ
Shared flanks, not repeated: GGGAGUUCUACAGUCCGACGAUC … UGGAAUUCUCGGGUGUCAAGG
UUUUCAAAAUAAGGAGCUUCCCAGACCUGUGUUAGAAGGGCAGCAGUCAGAGAGGACCCCAAAUAAUCGCCCUGAUGCCCCUAAGGAGAA: -1.57
CACAGACAACACGCACCCACACAGACACAGAGGGAAGGGGUUGGGAUGGGGACAGGGUGCACAGCAGGGCGGGGUAGGACAAAAGCCCCU: -0.265
GUCCUGUGCUACACAUCGUAUGUACCGAAUCGGGCCCCCGGGCCCCCGGGCCCCCGGGGAAAGUAUUAUGUUACGCCGUUCGGAUCUGCA: -2.11
CAAGUCCUGUGCUACACAUCGUAUGUACCGAAUCGGAAAAAGGUUUUUUUGGAGGAAAGUAUUAUGUUACGCCGUUCGGAUCUGCACUUC: -2.17
CCUCAGUGUCAUUUAUGAAAAGAGGGGACCAGAAGCCAAAGACUUAGUAUAUUUUCUUUUCCUCUGUCCCUUCCCCCAUAAGCCUCCAUU: -0.891
UUAGGGCCAAUCUUCGUCAAUAUGGUUUAGAGAAGUAUUACCUUGAUGUCCUGGUUUCAGAUGCAUCUAAACCUUCCUGGAGGAAGGGCA: -1.06
GUAGGAAGUAAAAACAAAUGGAAAUGCUUCGGAUAGUGGCAGGGGUGGGGGUUGCUAAGGAAAGGGUGGGAUGGGAGUGGGUAAAGAGUU: 1.19
GCAGGAAGUAAAAACAAAUGGAAAUGCUUCGGAUAGUGGCAGGGGUAGGGGUUGCUAAGGAAAGGGUGGGAUGGGAGUGGGUAAAGAGUU: 0.586
GCAGGAAGUAAAAACAAAUGGAAAUGCUUCGGAUAAUGGCAGGGGUGGGGGUUGCUAAGGAAAGGGUGGGAUGGGAGUGGGUAAAGAGUU: 1.7
AAGUCCUGUGCUACACAUCGUAUGUACCGAAUCGGGGUUUUGGGGUUUUGGUUUUGGAAAGUAUUAUGUUACGCCGUUCGGAUCUGCACU: -1.12
ACCAUGCAGGUGGGCAUCUUUGGGAAGUGGGGCAAGGGGGGGAUAAAAAGGGGGGUAACACUUUGGGAACAGGUGGUCCCAGGUCGUUUC: -0.688
UCCUGUGCUACACAUCGUAUGUACCGAAUCGGAAAAAAGGAAAAAAGGGGAAAAAAGGGGAAAGUAUUAUGUUACGCCGUUCGGAUCUGC: -1.48
UAACUUUAGAGGAGGAUCUGAUGGAUAUAGCAGUGGACGUGGAUUUGGGGAUGGCUAUAAUGGGUAUGGAGGAGGACCUGGAGGUGGCAA: -1.16
UCAAGUCCUGUGCUACACAUCGUAUGUACCGAAUCGGGGCCGGGGCCGGGGCCGGAAAGUAUUAUGUUACGCCGUUCGGAUCUGCACUUC: -2.66

Study 3 — technique: protein-binding microarray; form: double-stranded DNA, one strand shown; sample: in vitro; concentration: 940 nM top; notes: 60-bp whole probe; with: salmon DNA 0.4 mg/ml; relative to: random background probes; direction: higher = stronger binding; quantity: fitted relative affinity; shared flanks, not repeated: GCCTAGCAC … GTCTTGATTCGCTTGACGCTGCTG
Target: Interferon regulatory factor 5, full length, phosphomimetic (IRF5, Homo sapiens, UniProt Q13568-2, residues 1-514, S451D/S453D/S456D/S462D)
GACGGTTCCGGTTTCCGGACGTGCTAG: 3.48 z-score
GAAGGTATCCTACTGCTGACGTGCTAG: -0.167 z-score
TTATGACTGGACTATCGGTTAGTGCTA: 0.202 z-score
TCATGTTTCCTTGTACGACTGTGCTAG: 0.868 z-score
GACGATTTCCTTTCCCTGACGTGCTAG: 1.11 z-score
GACGGAATGGGGTATCGGGACGTGCTA: 0.906 z-score
TTAGGAGTGCTTCTCCTTTAGTGCTAG: -0.77 z-score
GACGGTTTCGTTCTCGGGACGTGCTAG: 8.3 z-score
GAGGGTATCCTTATCCTGACGTGCTAG: -0.275 z-score
GACGATTTCGGGTTTCGTGACGTGCTA: 1.11 z-score
TCTCTTTCCACTTGTCTTTTCGTGCTA: 3.73 z-score
TCAATTGTGGTTTTCATACTGTGCTAG: 0.497 z-score
GACGGTTTCGGTCTCCGGACGTGCTAG: 14.5 z-score
TTAGATCCCAGTCTCGATTAGTGCTAG: 3.1 z-score
CAGGGTCTCGCTTCATCTCCGTGCTAG: 1.17 z-score
TTAGGTCTGCTTTTCCTTTAGTGCTAG: 0.117 z-score
GACGATATCAGTCTCGAGGCGTGCTAG: 0.899 z-score
TTAGGTTTCTTTTCCCTTTAGTGCTAG: 3.31 z-score
GACGGACTGCCACTGCTGACGTGCTAG: -0.883 z-score
TTAGGACTGGGGACTGGGTTCGTGCTA: -0.289 z-score
TTAGGACTGGCGTTTCGGTTAGTGCTA: 1.29 z-score
TCAACAATGGCTTTGCCACTGTGCTAG: -0.472 z-score
TTAGGTATCCTTCTCTTTTAGTGCTAG: 1.07 z-score
GACGGTTTCCTGCTCCTGACGTGCTAG: 0.76 z-score
TTAGATTTCAATATCGATTAGTGCTAG: 0.888 z-score

Study 4 — technique: protein-binding microarray; form: double-stranded DNA, one strand shown; sample: in vitro; concentration: 0.8 µM; notes: whole 60-bp probe, no competitor; direction: higher = stronger binding; quantity: fluorescence intensity; shared flanks, not repeated: … GTCTTGATTCGCTTGACGCTGCTG
Target: Centromere-binding protein 1, full length, N-terminal tag (CBF1, Saccharomyces cerevisiae, UniProt P17106, residues 1-351)
Chain of UniProt P17106 (whole entry, looked up): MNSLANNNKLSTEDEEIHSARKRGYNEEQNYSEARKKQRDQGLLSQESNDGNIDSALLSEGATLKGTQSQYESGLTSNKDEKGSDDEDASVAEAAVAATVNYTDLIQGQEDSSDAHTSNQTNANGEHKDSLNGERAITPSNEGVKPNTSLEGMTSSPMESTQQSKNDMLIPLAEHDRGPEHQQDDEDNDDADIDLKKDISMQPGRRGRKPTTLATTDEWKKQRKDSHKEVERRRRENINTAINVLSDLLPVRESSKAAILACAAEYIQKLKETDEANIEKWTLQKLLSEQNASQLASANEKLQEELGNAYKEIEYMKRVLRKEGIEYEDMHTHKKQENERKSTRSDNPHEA
CTACTAGCTCTGCCACTGGTGGTGCTGATAGCGTTC: 509 a.u.
GAACGTGAAAATTGTAACACCACCTTGAAGTGCTAG: 518 a.u.
GAAGGAGCGTACATAGGTGACATTTGATAAGGTTAG: 552 a.u.
CTATCGAATAAATATCACATGTAACTTGAAGGTTTC: 1790 a.u.
CTATGCCACTGCCTGCACATGCATTGATACTGCTTC: 642 a.u.
CCTAACTACTATATTAACGTGGGATAGCTTCGTACA: 529 a.u.
CTAAAGATGTACAGGTGATTAATTACGTCTTTTTTC: 848 a.u.
TGTACGAAGCTATCGCACGCTCATATAGTAGTTAGG: 522 a.u.
GAAAAACGTATATAAGCGCTGATGTTTTGCTAATAG: 512 a.u.
CTACTACAATTGTACAATGTCACGTAAACAGTTTTC: 671 a.u.
CTACTTGTAATCGTTCATGTGGCAACTGTTTCATTC: 584 a.u.
GAAGACGAGATAATGAGCATGATGTATAAACAATAG: 578 a.u.
CTACAAATGGACTTTAGCGTGACCGTGCTTACCTTC: 780 a.u.
CTAGCAGGCAATAGCCATCACAGCAGTTTAGTATTC: 523 a.u.
GAATAGAAATTTAAACACGTTTATTTAGCTGCTTAG: 575 a.u.
CTAGCGTACTCTTGTGACGTACCAAAGCGCTTATTC: 530 a.u.
GAAAAGGGGCTTTCGAACGTGTGATAGAAAACTTAG: 655 a.u.
GAATCAAATAAAGCGCACGATATATACCTATTTTAG: 543 a.u.
